Published values gathered from unrelated publications.
Each line is one published result; not all experiments were run side by side. Values joined by “and” are separate records of one study, mostly repeats; a detail may differ. Numbers after ± are the reported error.

SMILES	cell line	test	system	setting	how to read	measurement	result
O=C(CCCCCN1C(=O)c2cccc3cccc(c23)C1=O)NO	BT-16	cell viability, MTT	–	10 µM, 72 h	–	inhibition	83.1%
CCc1cnc(N2CCC(c3nc(COc4ccc(-n5cnnn5)cc4)cs3)CC2)nc1	HEK293T	RNA-seq, measured: ATF3 mRNA	–	10 µM, 6 h	baseline: vehicle	log2 fold change	1.31
O=C(/C=C/C=C/C=C/C1CCCCC1)NC1=C[C@@](O)(/C=C/C=C/C=C/C(=O)NC2=C(O)CCC2=O)[C@@H]2O[C@@H]2C1=O	NCI-H441	cell growth, CellTiter-Glo	–	78 h	–	GI50	26300 nM
COc1cc([C@@H]2c3cc4c(cc3[C@@H](O[C@@H]3O[C@@H]5CO[C@@H](C)O[C@H]5[C@H](O)[C@H]3O)[C@H]3COC(=O)[C@H]23)OCO4)cc(OC)c1O	HepG2 spheroids	flow cytometry	–	1.7 µM, 96 h	–	S phase cells	6.01 ± 4.65%
COc1cc(Nc2ncc(F)c(Nc3ccc4c(n3)N(COP(=O)(O)O)C(=O)C(C)(C)O4)n2)cc(OC)c1OC	BT-16	cell viability, MTT	–	10 µM, 72 h	–	inhibition	94.7%
COC(=O)[C@]12CCC(C)(C)C[C@H]1[C@H]1C(=O)C=C3[C@@]4(C)C=C(C#N)C(=O)C(C)(C)[C@@H]4CC[C@@]3(C)[C@]1(C)CC2	HepG2	high content imaging, measured: DNA structure	–	6 h, distribution mode 2	–	point of departure	1.17 µM
CCOc1cc(-c2nncn2C)ccc1Nc1ncc2cc(C)nc(N[C@@H](C)C(C)(C)C)c2n1	CAL-51	cell growth	–	72 h	–	GI50	43 nM
COc1cc(/C=C/C(=O)N2CCC=CC2=O)cc(OC)c1OC	MDA-MB-468	qRT-PCR, measured: FH	–	30 µM, 6 h	baseline: time zero	mRNA expression	90.8 ± 10.2%
CCn1cc(-c2cc(Cn3ccnc3)cc3c2CCN([C@H](c2cc(OC)ccn2)C2CC2)C3=O)c(C(F)(F)F)n1	Granta-519	cell growth, inhibitor	–	120 h	–	EC50	34.9 nM
Nc1ncnc2c1ncn2[C@@H]1O[C@H](CO)[C@@H](O)[C@H]1O	activated human T cells	–	–	50 µM, unit not given	baseline: DMSO	dihydroorotate level	7.2 and 6.7 and 6.6 and 8.4 and 8.3
CCn1cc(-c2cc(Cn3ccoc3=N)cc3c2CCN([C@@H](C)c2cc(OC)ccn2)C3=O)c(C(F)(F)F)n1	OV-90	cell growth, inhibitor	–	120 h	–	EC50	> 30000 nM
Cc1ccc(CNC(=O)Cn2cc(CSc3nc4ccccc4[nH]3)nn2)cc1	MDA-MB-231	MTT	–	31.3 ppm	–	cytotoxicity	87.6%
Cn1cc(-c2ccc(-c3cncc(Cl)c3N3CCC4(CCNC4=O)CC3)cc2)cn1	COLO 205	gene expression, microarray, measured: TNFRSF12A (FN14) mRNA	–	concentration not given, 6 h	baseline: untreated cells	log2 fold change	1.85
OC1(c2ccc(Cl)c(C(F)(F)F)c2)CCN(CCCC(c2ccc(F)cc2)c2ccc(F)cc2)CC1	BT-16	cell viability, MTT	–	10 µM, 72 h	–	inhibition	94.9%
Cc1cccc(-c2[nH]c(CNc3ccccc3F)nc2-c2ccc3ncnn3c2)n1	RPMI-8226	flow cytometry, measured: CD61	–	concentration not given	baseline: comparator compound alone	surface marker level	58.3%
Clc1nc(NCc2ccco2)c2[nH]cnc2n1	iPSC-derived cardiomyocytes	RNA-seq, measured: AFMID chr17 exon ending 78204900	–	unit not given	baseline: DMSO minus compound	ΔPSI	0.228
COc1ccc(-n2nc(C(C)=O)s/c2=N\N=C(/C)c2ccc(NC(=O)c3ccc(Cl)cc3)cc2)cc1	HepG2	–	–	1.25 µM	–	toxicity	94.3%
CC(C)(C)NC(=O)[C@@H]1C[C@@H]2CCCC[C@@H]2CN1C[C@@H](O)[C@H](Cc1ccccc1)NC(=O)[C@H](CC(N)=O)NC(=O)c1ccc2ccccc2n1	ΔE-expressing cells	ΔE mislocalization, high-content imaging	–	–	–	maximal efficacy	135%
Cc1cc(Nc2ncc(Cl)c(Nc3ccccc3S(=O)(=O)C(C)C)n2)c(OC(C)C)cc1C1CCNCC1	CLB-GE	phosphoproteomics LC-MS/MS, measured: MAPK3 phosphorylation	–	200 nM, 60 min	baseline: untreated	log2 fold change	-1.79
CSc1cc(Oc2ccnc3[nH]c(=O)cnc23)ccc1NC(=O)Nc1cc(C(C)(C)C)nn1-c1ccccc1	patient-derived cell line clone B	RPPA, measured: phosphorylated Tuberin	human	1 µM, 4 h	baseline: DMSO	phospho ratio	0.75

Some of these lines once more:
SMILES	cell line	test	system	setting	how to read	measurement	result
CCc1cnc(N2CCC(c3nc(COc4ccc(-n5cnnn5)cc4)cs3)CC2)nc1	HEK293T	RNA-seq, measured: ATF3 mRNA	–	10 µM, 6 h	baseline: vehicle	log2 fold change	1.31
O=C(/C=C/C=C/C=C/C1CCCCC1)NC1=C[C@@](O)(/C=C/C=C/C=C/C(=O)NC2=C(O)CCC2=O)[C@@H]2O[C@@H]2C1=O	NCI-H441	cell growth, CellTiter-Glo	–	78 h	–	GI50	26300 nM
